Experimental data of several laboratories.
Compare with care: the assays were run in different laboratories. ± marks the error that the study gave. Converted amounts (≈) assume the structure as drawn.
Organism: Mycobacterium tuberculosis

For `CCCC/C=C/C(=O)N[C@@H](Cc1cc(F)cc(F)c1)C(=O)N[C@@H](COC(=O)[C@@H]1CCCN1C(C)=O)C(=O)OC`, “potentiation by verapamil” read 16 fold (H37Rv; concentration not given, with: 50 µg/mL verapamil; reference: without verapamil).
The MIC99 of `Cc1ccc(F)c(C(=O)C=C(O)C(=O)OCc2ccccc2)c1Cl` is reported as 2 µM (≈ 0.698 µg/mL) (MABA; H37Rv; dextrose carbon source).
With `[2H]c1c(C([2H])([2H])[2H])c([2H])n2c(C(=O)NCc3cccc(N(C)C)c3)c(C)nc2c1[2H]` the MIC was 0.0502 ± 0.0064 µM (MABA; H37Rv, GAS medium).
The MIC of `CCCCCCc1ccc(Oc2ccccc2Br)c(O)c1` is reported as 3.13 µg/mL (microplate Alamar Blue; 6 days + 24 h, 37 °C).
The MIC90 of `CCCCCCCCCC1N=C(N)N=C(N)N1c1ccc(Cl)cc1.Cl` (racemic) is reported as 1.5 µM (microplate alamar blue; H37Rv; GAST medium, glycerol carbon source).
For `[2H]c1c(C([2H])([2H])[2H])c([2H])n2c(C(=O)NCc3ccc(C(C)(C)C)cc3)c(C)nc2c1[2H]`, the MIC was 0.0027 µM (MABA; H37Rv, 7H12 medium).
For `CCCC/C=C/C(=O)N[C@@H](Cc1cc(F)cc(F)c1)C(=O)OC`, antitubercular activity read “inactive” (H37Rv; concentration not given).
`O=C(OCc1ccccc1)C(O)=CC(=O)c1ccccc1Br` has an MIC99 of < 1 µM (MABA; H37Rv; acetate carbon source).
The MIC90 of `CCCCCCCCCCCC1N=C(N)N=C(N)N1c1ccc(Cl)cc1.Cl` (racemic) is reported as 0.7 µM (microplate alamar blue; H37Rv; 7H12 medium).
The MIC99 of `COC(=O)C(O)=CC(=O)c1ccccc1Br` is reported as 16 µM (≈ 4.56 µg/mL) (MABA; H37Rv; dextrose carbon source).
`CCCCCCC1N=C(N)N=C(N)N1c1ccc(Cl)cc1.Cl` (racemic) gave an MIC90 of 5.7 µM (microplate alamar blue; H37Rv; GAST medium, glycerol carbon source).
For `Cc1ccc2nc(C)c(C(=O)NCc3ccc(C(F)(F)F)cc3)n2c1`, the MIC was 0.0071 ± 0.0025 µM (MABA; H37Rv, 7H12 medium).

A few entries again:
`O=C(OCc1ccccc1)C(O)=CC(=O)c1ccccc1Br` has an MIC99 of < 1 µM (MABA; H37Rv; acetate carbon source).
